{"data": "Measurements pooled from the literature", "target": "Serine/threonine-protein kinase DCLK2 (DCLK2, Homo sapiens, UniProt Q8N568)", "Residues used in one study (Q8N568 1-766)": "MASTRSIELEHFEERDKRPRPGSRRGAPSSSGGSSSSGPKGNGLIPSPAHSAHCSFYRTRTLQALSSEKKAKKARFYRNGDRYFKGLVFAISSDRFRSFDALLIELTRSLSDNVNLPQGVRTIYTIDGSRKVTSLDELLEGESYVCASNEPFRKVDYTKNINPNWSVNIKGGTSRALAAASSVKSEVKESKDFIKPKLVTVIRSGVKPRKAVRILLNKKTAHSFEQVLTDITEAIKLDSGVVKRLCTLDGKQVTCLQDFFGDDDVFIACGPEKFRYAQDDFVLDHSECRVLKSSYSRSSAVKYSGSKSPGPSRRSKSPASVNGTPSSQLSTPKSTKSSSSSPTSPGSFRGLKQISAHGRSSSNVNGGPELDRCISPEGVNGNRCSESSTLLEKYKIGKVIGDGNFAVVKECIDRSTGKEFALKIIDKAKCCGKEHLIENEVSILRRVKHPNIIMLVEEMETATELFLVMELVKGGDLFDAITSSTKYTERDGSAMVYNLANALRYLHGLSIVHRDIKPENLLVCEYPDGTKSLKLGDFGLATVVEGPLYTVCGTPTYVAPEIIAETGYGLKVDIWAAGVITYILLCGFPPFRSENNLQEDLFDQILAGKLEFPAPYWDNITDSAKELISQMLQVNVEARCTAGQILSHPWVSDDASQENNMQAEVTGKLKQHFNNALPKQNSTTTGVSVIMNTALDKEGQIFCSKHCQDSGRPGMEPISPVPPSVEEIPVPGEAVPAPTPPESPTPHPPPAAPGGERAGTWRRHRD", "note": "Lines come from different studies, so protocols differ. Several values in a cell are separate wells, animals, samples, runs or records."}
{"test": "binding, competition with immobilised ligand", "conditions": "1 µM", "quantity": "remaining binding", "result": "100%", "SMILES": "Nc1ncc2c(n1)-c1c([nH]c3ccc(C4=CCOCC4)cc13)CCC2"}
{"test": "enzyme activity, inhibitor", "conditions": "0.1 µM", "quantity": "inhibition", "result": "1%", "SMILES": "C=CC(=O)Nc1cccc(-c2cnc3[nH]cc(C(=O)NC(C)(C)C)c3n2)c1"}
{"test": "kinase activity, inhibitor, ProQinase kinase profiling", "conditions": "25 µM", "scale": "baseline: control", "quantity": "remaining activity", "result": "74% and 78%", "SMILES": "COCC12C(=O)NC3C4(C(OC)CC1O)C1CC5(O)C(OC)C(O)C(OC(C)=O)(C1C5OC(=O)c1ccccc1)C3(O)C(OC)C24 (stereo not shown)"}
{"test": "enzyme activity, inhibitor", "conditions": "1 µM", "quantity": "inhibition", "result": "41%", "SMILES": "Cc1nc2c(F)cc(-c3nc(Nc4ccc(CNC(=O)CCCCCCC(=O)NO)cc4)ncc3F)cc2n1C(C)C"}
{"test": "binding, competition with immobilised ligand", "conditions": "1 µM", "quantity": "remaining binding", "result": "90%", "SMILES": "COc1cc(Nc2nccc(-c3cnn4nc(OC)ccc34)n2)cc(C(F)(F)F)c1"}
{"test": "cell-free assay, competition with immobilised ligand", "conditions": "10 µM", "quantity": "remaining binding", "result": "90%", "SMILES": "CC(C)=CC1OC(C)(C)C2C=C3C(=O)C(Cl)=CC(O)C3C3C(O)C4OC4C(=O)C132 (stereo not shown)"}
{"test": "KINOMEscan", "conditions": "1 µM", "scale": "baseline: DMSO control", "quantity": "remaining binding", "result": "94%", "SMILES": "C=CC(=O)N1CCc2ccc(-n3c(=O)ccc4cnc5ccc(-c6cnn(C)c6)cc5c43)cc21"}
{"test": "enzyme activity, inhibitor", "conditions": "10 µM", "quantity": "activity vs control", "result": "144%", "SMILES": "O=C(Cc1ccc(OCc2ccccc2)cc1)NC1(C(=O)O)CCN(C(=O)c2ccc(-c3cccc(Cl)c3)cc2)CC1"}
{"test": "enzyme activity, inhibitor", "conditions": "1 µM", "quantity": "inhibition", "result": "6%", "SMILES": "CN1CC[C@@H](COc2cnc(C#N)cc2-c2ccn3nc(NC(=O)C4CC4)cc3c2)C1"}
{"test": "enzyme activity", "conditions": "100 nM, human enzyme, added: 10 µM ATP", "scale": "baseline: untreated", "quantity": "remaining activity", "result": "97%", "SMILES": "O=C=[N][Ru-4]123([n]4c5ccc(O)cc5c5c6c(c7cc(F)c[n+]1c7c54)C(=O)NC6=O)[S+]1CC[S+]2CC[S+]3CC1 (stereo not shown)"}
{"test": "kinase activity, KinaseProfiler", "conditions": "0.03 µM, species human", "scale": "baseline: control", "quantity": "remaining activity", "result": "90%", "SMILES": "COc1ccc(NC(=O)Nc2ccc3c(c2)C(=O)N(C(C)CO)CC(C)C(CN(C)Cc2ccc4c(c2)OCO4)O3)cc1 (stereo not shown)"}
{"test": "enzyme activity, inhibitor", "conditions": "1 µM", "quantity": "activity vs control", "result": "128%", "SMILES": "CNC(=O)C[C@H](Cc1ccc(C#N)cc1)NC(=O)c1cc(-c2ccc(CN[C@H](C)c3ccc(C)cc3)o2)ccc1Cl"}
{"test": "enzyme activity, inhibitor", "conditions": "10 µM", "quantity": "inhibition", "result": "-3%", "SMILES": "Cc1cccc(O[C@H]2CCC[C@@H](C(C)CNCc3ccncc3)C2)c1 (relative stereo)"}
{"test": "enzyme activity, inhibitor", "conditions": "10 µM", "quantity": "inhibition", "result": "12%", "SMILES": "NC(=O)C[C@H]1CCc2sc3ncnc(O[C@H]4CC[C@H](N5CCOCC5)CC4)c3c21"}
{"test": "enzyme activity, inhibitor", "conditions": "10 µM", "quantity": "inhibition", "result": "0.43%", "SMILES": "COc1cc(-n2cc3cc(F)cc(C(N)=O)c3n2)cc(Cl)c1C1CC(O)(CCO)Cc2ccccc21 (stereo not shown)"}
{"test": "binding, competition with immobilised ligand", "conditions": "0.1 µM", "quantity": "remaining binding", "result": "100%", "SMILES": "Cc1cnc2nc1Nc1cccc(c1)COC/C=C/COCc1cc(ccc1OCCN1CCOCC1)N2"}
{"note": "Repeated from above:"}
{"test": "enzyme activity, inhibitor", "conditions": "1 µM", "quantity": "inhibition", "result": "41%", "SMILES": "Cc1nc2c(F)cc(-c3nc(Nc4ccc(CNC(=O)CCCCCCC(=O)NO)cc4)ncc3F)cc2n1C(C)C"}
{"test": "binding, competition with immobilised ligand", "conditions": "1 µM", "quantity": "remaining binding", "result": "90%", "SMILES": "COc1cc(Nc2nccc(-c3cnn4nc(OC)ccc34)n2)cc(C(F)(F)F)c1"}
